Measured values collected from several papers.
Numbered parts are unrelated; each lists some results of a single study.

Sample 1
Target: Histone acetyltransferase KAT6A, winged helix 2, GST fusion (KAT6A, Homo sapiens, UniProt Q92794, residues 85-181)
Technique: protein binding microarray
Molecule type: double-stranded DNA, one strand shown
Sample: in vitro
Tested at: not given
Setting: 8-mer, flanks averaged, mean of 2 arrays, mostly near background
Baseline: not given
Direction: higher = stronger binding
Construct (chain): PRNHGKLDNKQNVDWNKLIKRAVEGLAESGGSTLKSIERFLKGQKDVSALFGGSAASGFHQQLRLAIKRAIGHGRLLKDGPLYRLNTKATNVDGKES
Oligonucleotide | E-score
GGACCCGA | 0.168
ATACATAG | 0.106
CAAGAAGA | 0.0925
ACGATATA | -0.17
TGGCAAAA | 0.12
CTGATTGA | -0.0297
AGACTATA | 0.0538
GGCACGCC | -0.0145

Sample 2
Target: Sal-like protein 4, full length isoform B (SALL4, Homo sapiens, UniProt Q9UJQ4-2, residues 1-616)
Technique: universal PBM
Molecule type: double-stranded DNA, one strand shown
Sample: in vitro
Tested at: not given
Setting: 8-mer, flanks averaged, mean of replicates
Direction: higher = stronger binding
Target sequence (chain): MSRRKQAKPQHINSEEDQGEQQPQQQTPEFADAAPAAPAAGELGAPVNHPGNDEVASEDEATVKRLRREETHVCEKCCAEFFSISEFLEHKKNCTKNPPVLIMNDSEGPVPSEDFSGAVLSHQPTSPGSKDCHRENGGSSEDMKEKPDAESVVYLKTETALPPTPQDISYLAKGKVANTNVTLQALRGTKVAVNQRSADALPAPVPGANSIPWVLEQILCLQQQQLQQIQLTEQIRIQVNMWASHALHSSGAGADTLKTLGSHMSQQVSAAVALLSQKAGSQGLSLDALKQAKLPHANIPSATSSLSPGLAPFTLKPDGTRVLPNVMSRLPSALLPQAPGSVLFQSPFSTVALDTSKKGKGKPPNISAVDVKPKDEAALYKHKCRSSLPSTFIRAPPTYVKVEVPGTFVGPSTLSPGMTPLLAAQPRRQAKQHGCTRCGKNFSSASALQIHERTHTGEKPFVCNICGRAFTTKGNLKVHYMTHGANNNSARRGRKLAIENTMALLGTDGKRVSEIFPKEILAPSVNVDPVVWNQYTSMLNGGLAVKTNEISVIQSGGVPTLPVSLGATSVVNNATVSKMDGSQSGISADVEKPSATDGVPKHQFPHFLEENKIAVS
Oligonucleotide | E-score
TACGTCGA | -0.00833
CACGCCAC | -0.177
AGTCTGTG | -0.0638
AATGTTAC | 0.205
GCGACGGA | -0.251
GAATAAGA | 0.155
AGTAAAAT | 0.266
CTTGTCCA | -0.0293
ACGTTTGC | -0.055
CATAGCCG | -0.0538

Further values, each from its own experiment
Substance | target | assay | test system | setting | scale | endpoint | value
UACAGG | TAR DNA-binding protein 43, full length, His tag (TARDBP, Homo sapiens, UniProt Q13148, residues 1-414) | RNA Bind-n-Seq | RNA, in vitro | 20 nM, 6-mer, flanks averaged, single round, together with: 150 mM KCl | baseline: input library, higher = stronger binding | 6-mer enrichment (R) | 1.04
PhoQ, residues 284 288 289 292 302 303 SASVAL | PhoP, residues 12 14 15 18 19 LHTVM (Escherichia coli, UniProt P23836) | Sort-seq, measured: YFP reporter | E. coli | PhoQ-PhoP variant library, together with: 10 µM Mg2+ | baseline: high Mg2+ state, higher = stronger signaling | fold induction | 20.2

A few entries again (sample 2):
Oligonucleotide | E-score
CTTGTCCA | -0.0293
